Published values from different studies.
A part holds a random share of what one study measured. Changes are numbered by the printed parent chain.

Series 1 — technique: competition protein-binding microarray; molecule type: double-stranded DNA, one strand shown; sample: in vitro; tested at: 2 µM; added: Cbf1 competitor, 0.05 µM; direction: higher = stronger binding
Target: Phosphate system positive regulatory protein PHO4, full length, GST-tagged (PHO4, Saccharomyces cerevisiae, UniProt P07270, residues 1-312)
Notes: whole 60-bp probe, lowest competitor level
Residues (chain): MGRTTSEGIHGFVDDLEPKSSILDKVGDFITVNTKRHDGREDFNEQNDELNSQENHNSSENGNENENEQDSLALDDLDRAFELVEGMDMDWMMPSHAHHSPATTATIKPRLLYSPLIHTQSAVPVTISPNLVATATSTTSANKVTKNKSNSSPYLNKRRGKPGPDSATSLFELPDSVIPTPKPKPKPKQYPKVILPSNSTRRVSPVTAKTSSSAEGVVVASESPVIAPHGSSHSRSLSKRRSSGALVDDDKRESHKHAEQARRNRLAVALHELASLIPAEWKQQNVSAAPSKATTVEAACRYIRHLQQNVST
The fluorescence intensity of `AACTGTGAAAGGTTCCACGTGGCCGGGTGAGATTCGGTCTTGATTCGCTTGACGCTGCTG` is reported as 15300 a.u.
`ACCGGCAAGCGTTGGCTCATGACAACTGCCACCTCCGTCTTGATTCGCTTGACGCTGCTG` has a fluorescence intensity of 3540 a.u.
For `AAATTACTAAGTTTTCACGTGGACTACCCCGTATGAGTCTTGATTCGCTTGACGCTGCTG`, the fluorescence intensity was 12800 a.u.
The fluorescence intensity of `ACTTTCTTTCTGTTCCACGTGGGTACACCACTTCAAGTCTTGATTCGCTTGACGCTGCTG` is reported as 19000 a.u.
With `TGCGCAACAACTTGTTCCGTGGGTGTATGTCTAGAAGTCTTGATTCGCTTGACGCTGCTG` the fluorescence intensity was 5140 a.u.
`TGCGCAACAACTTGAGAGGTGGGTGTATGTCTAGAAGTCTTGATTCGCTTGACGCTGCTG` has a fluorescence intensity of 4570 a.u.
With `TCTCAAGATCTGTTCCTCGTGGCCGAATGGTTACGGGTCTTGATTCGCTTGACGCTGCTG` the fluorescence intensity was 10800 a.u.
The fluorescence intensity of `GGGGAGGATGATTTTCATGTGCGAATATCTACCGGCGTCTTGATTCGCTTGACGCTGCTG` is reported as 4760 a.u.

Series 2 — technique: RNA Bind-n-Seq; molecule type: RNA; sample: in vitro; tested at: 20 nM; notes: 6-mer, flanks averaged, single round; added: 150 mM KCl; reference: input library; direction: higher = stronger binding
Target: TAR DNA-binding protein 43, full length, His tag (TARDBP, Homo sapiens, UniProt Q13148, residues 1-414)
Under “6-mer enrichment (R)”, `CGCGCA` is recorded as 0.896.
Under “6-mer enrichment (R)”, `ACACGC` is recorded as 0.715.
Under “6-mer enrichment (R)”, `UAUGAC` is recorded as 0.659.
Under “6-mer enrichment (R)”, `UUGGAC` is recorded as 0.775.
Under “6-mer enrichment (R)”, `GUUAUC` is recorded as 0.589.
Under “6-mer enrichment (R)”, `AAAGUG` is recorded as 0.881.
Under “6-mer enrichment (R)”, `GUACGC` is recorded as 0.917.
`UGCGUA` — result for “6-mer enrichment (R)”: 0.849.

Series 3 — technique: protein-binding microarray; molecule type: double-stranded DNA, one strand shown; sample: in vitro; tested at: 2540 nM top; notes: 60-bp whole probe; added: salmon DNA 0.4 mg/ml; reference: random background probes; direction: higher = stronger binding; all sequences stand within: GCCTAGCAC … GTCTTGATTCGCTTGACGCTGCTG
Target: Interferon regulatory factor 3, full length, phosphomimetic (IRF3, Homo sapiens, UniProt Q14653, residues 1-427, S386D/S396D/S398D/S402D/T404D/S405D)
Residues (chain): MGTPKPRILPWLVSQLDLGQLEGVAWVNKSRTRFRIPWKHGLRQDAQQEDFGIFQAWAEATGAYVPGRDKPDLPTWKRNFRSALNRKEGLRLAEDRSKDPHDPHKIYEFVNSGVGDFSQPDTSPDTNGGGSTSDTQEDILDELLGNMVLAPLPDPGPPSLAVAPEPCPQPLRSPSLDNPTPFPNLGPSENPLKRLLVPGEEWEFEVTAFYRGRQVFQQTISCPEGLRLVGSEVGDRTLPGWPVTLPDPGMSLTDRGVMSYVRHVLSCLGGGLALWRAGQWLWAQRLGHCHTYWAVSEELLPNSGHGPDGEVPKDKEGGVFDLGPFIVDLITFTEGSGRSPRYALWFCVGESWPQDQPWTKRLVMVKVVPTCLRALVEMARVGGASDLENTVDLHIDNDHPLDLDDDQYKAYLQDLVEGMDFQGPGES
Under “fitted relative affinity”, `TTAGATATCAGACTCGATTAGTGCTAG` is recorded as 0.911 z-score.
`GACGATATCGGATTTCGAGACGTGCTA`: “fitted relative affinity” 1.22 z-score.
For `TCATCCTCCTCTCTCTTACTGTGCTAG`, “fitted relative affinity” read 1.05 z-score.
`TCCACTTGTCTTTTCATTTTGTGCTAG`: “fitted relative affinity” 1.66 z-score.
`TTAGATATCGGGTTTCGATCAGTGCTA`: “fitted relative affinity” 1.36 z-score.
For `TTAGGTTGCCTACTGCTTTAGTGCTAG`, “fitted relative affinity” read 1.81 z-score.
`TTAGGAATGCTACTGCTTTAGTGCTAG`: “fitted relative affinity” -0.481 z-score.
`GAGGGACTGGACTATCGGGACGTGCTA` — result for “fitted relative affinity”: -0.91 z-score.

Other studies, line by line
Parent: PafA, mature enzyme, eGFP fusion (Elizabethkingia meningoseptica, UniProt Q9KJX5); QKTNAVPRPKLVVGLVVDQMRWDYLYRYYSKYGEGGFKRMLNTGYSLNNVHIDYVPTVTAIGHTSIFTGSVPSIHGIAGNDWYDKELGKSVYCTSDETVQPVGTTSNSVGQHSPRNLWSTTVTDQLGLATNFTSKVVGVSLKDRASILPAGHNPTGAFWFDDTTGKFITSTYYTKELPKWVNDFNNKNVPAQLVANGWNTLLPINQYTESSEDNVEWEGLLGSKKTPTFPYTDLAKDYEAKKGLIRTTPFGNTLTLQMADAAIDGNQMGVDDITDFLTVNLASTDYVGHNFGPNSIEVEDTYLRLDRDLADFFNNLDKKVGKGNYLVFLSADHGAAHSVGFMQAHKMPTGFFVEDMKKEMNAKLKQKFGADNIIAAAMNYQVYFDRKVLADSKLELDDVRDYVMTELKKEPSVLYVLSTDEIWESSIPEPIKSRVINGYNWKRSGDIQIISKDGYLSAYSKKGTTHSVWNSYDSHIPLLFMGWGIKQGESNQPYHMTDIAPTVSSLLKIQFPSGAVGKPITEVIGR
Under “oxyanion analog dissociation constant”, `K442V` is recorded as 1.59 µM (vanadate, free oxyanion; microfluidic competitive inhibition; in vitro, cell-free expressed; not given, derived from inhibition constants, unchanged parent 676 nM; lower = stronger binding).

Some of these lines once more (series 3):
For `TCATCCTCCTCTCTCTTACTGTGCTAG`, “fitted relative affinity” read 1.05 z-score.
For `TTAGGTTGCCTACTGCTTTAGTGCTAG`, “fitted relative affinity” read 1.81 z-score.
`TCCACTTGTCTTTTCATTTTGTGCTAG`: “fitted relative affinity” 1.66 z-score.
